Experimental data pooled from the literature.
± marks the error that the study gave.

CCCN1CC(c2ccc(S(C)(=O)=O)cc2)=C(c2ccc(C)cc2)C1=O  Cmax increase (healthy Chinese subjects, elderly, plasma; oral, 100 mg single dose; reference: non-elderly subjects): 39%
C[C@]12C=CC(=O)C=C1CC[C@@H]1[C@@H]2[C@@H](O)C[C@@]2(C)[C@H]1C[C@H]1O[C@@H](C3CCCCC3)O[C@]12C(=O)CO  Cmax ratio (children with asthma; inhaled, ciclesonide 80 µg with spacer vs 160 µg without, steady state, dose normalized; reference: with spacer over without): 163%
CC(C)(CO)c1cc2cc(NC(=O)C3(c4ccc5c(c4)OC(F)(F)O5)CC3)c(F)cc2n1C[C@@H](O)CO  Cmax ratio (healthy subjects, plasma; oral, 25 mg once daily, with: ivacaftor 50 mg, itraconazole 200 mg; reference: with over without itraconazole): 2.83
COc1cccc(N2CCN(C3=Nc4c(F)cccc4[C@H](CC(=O)O)N3c3cc(C(F)(F)F)ccc3OC)CC2)c1  Cmax at steady state (healthy women, plasma; intravenous, 240 mg once daily, day 14, 30-min infusion): 15900 ± 1950 ng/mL
CC(C)(C(=O)NCC(F)(F)C(F)(F)F)C(=O)N[C@@H]1C(=O)Nc2ccccc2-c2ccccc21  Cmax ratio (refers to: total drug; advanced breast cancer patients, plasma; oral, median; reference: combination over alone): 18%
Nc1nnc(CN[C@@H]2C[C@H]2c2ccc(OCc3ccccc3)cc2)o1  Cmax at steady state (healthy young adults; oral, 1.0 mg/day, day 5, multiple dose, mean): 14.1 ng/mL
C[C@@H]1CCO[C@H]2Cn3cc(C(=O)NCc4ccc(F)cc4F)c(=O)c(O)c3C(=O)N12  Cmax decrease (severe renal impairment patients, plasma; oral, 50 mg single dose; reference: matched healthy subjects): 23%
C[C@@H](Oc1ccc(S(C)(=O)=O)cc1C(=O)N1C[C@@H]2C[C@]2(c2cc(C(F)(F)F)on2)C1)C(F)(F)F  Cmax at steady state (healthy young subjects; oral, 75 mg twice daily, multiple dose): 1930 nM
CC(C)(CC(=O)N1CCCC1)NCC(=O)N1C[C@@H](F)C[C@H]1C#N  Cmax at steady state (Chinese type 2 diabetes patients, plasma; oral, 200 mg once daily, multiple doses): 567 ng/mL
O=C(c1ccc(F)c(F)c1Nc1ccc(I)cc1F)N1CC(O)([C@@H]2CCCCN2)C1  Cmax at steady state (paediatric patients, expansion cohort, plasma; oral, 1.0 mg/kg, mean): 142 ng/mL
Cn1c(-c2ccc(C(N)=O)cc2F)nnc1C(C)(C)Oc1c(F)cc(Cl)cc1F  Cmax median (young non-Japanese adults, plasma; oral, 50 mg single dose, day 1, high-dose multiple-dose study): 490 ng/mL
Cc1nc(-c2ccc(OCC(C)C)c(C#N)c2)sc1C(=O)O  Cmax ratio (healthy men, plasma; oral, 80 mg, geometric mean ratio, with: verinurad 2.5 mg; reference: with over without verinurad): 96.7%
C#C[C@]1(O)CC[C@H]2[C@@H]3CCc4cc(O)ccc4[C@H]3CC[C@@]21C  Cmax ratio (postmenopausal women with type 2 diabetes; oral, dose not given, with: semaglutide steady state; reference: with over without semaglutide): 1.04
NC(=O)c1cnc2[nH]ccc2c1N[C@@H]1[C@@H]2CC3C[C@H]1C[C@@](O)(C3)C2  Cmax ratio (healthy men; oral, 20 to 200 mg; reference: Japanese over Caucasian): 1.6 fold
CC(C)(C)c1cc(C(C)(C)C)c(NC(=O)c2c[nH]c3ccccc3c2=O)cc1O  Cmax ratio (healthy subjects, plasma; oral, 50 mg once daily, with: tezacaftor 25 mg, itraconazole 200 mg; reference: with over without itraconazole): 8.6
CC[C@H](C)[C@H](NC(=O)[C@H](CCC(=O)O)NC(=O)[C@H](CO)NC(=O)[C@@H](NC(=O)[C@@H](N)CO)C(C)C)C(=O)N[C@@H](CCC(N)=O)C(=O)N[C@@H](CC(C)C)C(=O)N[C@@H](CCSC)C(=O)N[C@@H](Cc1cnc[nH]1)C(=O)N[C@@H](CC(N)=O)C(=O)N[C@@H](CC(C)C)C(=O)NCC(=O)N[C@@H](CCCCN)C(=O)N[C@@H](Cc1cnc[nH]1)C(=O)N[C@@H](CC(C)C)C(=O)N[C@@H](CC(N)=O)C(=O)N[C@@H](CO)C(=O)N[C@@H](CCSC)C(=O)N[C@@H](CCC(=O)O)C(=O)N[C@@H](CCCN=C(N)N)C(=O)N[C@H](C(=O)N[C@@H](CCC(=O)O)C(=O)N[C@@H](Cc1c[nH]c2ccccc12)C(=O)N[C@@H](CC(C)C)C(=O)N[C@@H](CCCN=C(N)N)C(=O)N[C@@H](CCCCN)C(=O)N[C@@H](CCCCN)C(=O)N[C@@H](CC(C)C)C(=O)N[C@@H](CCC(N)=O)C(=O)N[C@@H](CC(=O)O)C(=O)N[C@H](C(=O)N[C@@H](Cc1cnc[nH]1)C(=O)N[C@@H](CC(N)=O)C(=O)N[C@@H](Cc1ccccc1)C(=O)O)C(C)C)C(C)C  Cmax reduction (postmenopausal osteoporotic women; subcutaneous, 20 µg; reference: thigh over abdominal wall injection): 18%
CC[C@H](C)[C@H](NC(=O)[C@H](Cc1ccccc1)NC(=O)[C@H](CCC(=O)O)NC(=O)[C@H](CCCCNC(=O)COCCOCCNC(=O)COCCOCCNC(=O)CC[C@H](NC(=O)CCCCCCCCCCCCCCCCC(=O)O)C(=O)O)NC(=O)[C@H](C)NC(=O)[C@H](C)NC(=O)[C@H](CCC(N)=O)NC(=O)CNC(=O)[C@H](CCC(=O)O)NC(=O)[C@H](CC(C)C)NC(=O)[C@H](Cc1ccc(O)cc1)NC(=O)[C@H](CO)NC(=O)[C@H](CO)NC(=O)[C@@H](NC(=O)[C@H](CC(=O)O)NC(=O)[C@H](CO)NC(=O)[C@@H](NC(=O)[C@H](Cc1ccccc1)NC(=O)[C@@H](NC(=O)CNC(=O)[C@H](CCC(=O)O)NC(=O)C(C)(C)NC(=O)[C@@H](N)Cc1cnc[nH]1)[C@@H](C)O)[C@@H](C)O)C(C)C)C(=O)N[C@@H](C)C(=O)N[C@@H](Cc1c[nH]c2ccccc12)C(=O)N[C@@H](CC(C)C)C(=O)N[C@H](C(=O)N[C@@H](CCCNC(=N)N)C(=O)NCC(=O)N[C@@H](CCCNC(=N)N)C(=O)NCC(=O)O)C(C)C  Cmax ratio (healthy Japanese subjects, plasma; subcutaneous, steady state, once weekly; reference: 1.0 mg over 0.5 mg): 2.06
